Results gathered from unrelated publications.
Numbers after ± are the reported error.
Cell line: HeLa

Structure (SMILES) = COC(=O)[C@@H]1CCCN1C(=O)[C@H](Cc1ccccc1)NC(=O)OC(C)(C)C; effect on = cell growth or viability; technique = SRB; IC50 = 12 µM
Structure (SMILES) = Cc1cc(/C=C/C#N)cc(C)c1Oc1cc(Nc2ccc(C#N)cn2)nc2ccncc12; time = 48 h; IC50 = > 120 µM
Structure (SMILES) = O=C(Cc1ncc(-c2ccc(OCCN3CCOCC3)cc2)cn1)NCc1ccccc1; effect on = cell growth or viability; technique = CCK-8; time = 48 h; IC50 = 0.37 µM
Structure (SMILES) = CC(=O)OC[C@H]1O[C@@H](NC(=O)/C=C/c2ccc(C(C)C)cc2)[C@H](OC(C)=O)[C@@H](OC(C)=O)[C@@H]1OC(C)=O; effect on = cell growth or viability; time = 96 h; IC50 = 124 µM
Structure (SMILES) = COc1cccc2c(NCc3ccccc3)nc(Nc3cccc(F)c3)nc12; effect on = ODD-Luc degradation; notes = p97-independent substrate; IC50 = 22 ± 4 µM
Structure (SMILES) = S=c1n(-c2ccccc2)c2c3ccccc3nc3[n+]2[n]1[Ir-3]12([S]3)([c]3cccc4ccc5ccc[n+]1c5c34)[c]1cccc3ccc4ccc[n+]2c4c13; effect on = cell viability; technique = MTT; notes = dark; IC50 = > 50 µM
Structure (SMILES) = COc1ccccc1CNC[C@@](O)(COCc1ccccc1)[C@@H]1CC[C@@H](C)C[C@H]1OCc1ccccc1; effect on = cell growth or viability; technique = MTT; time = 72 h; IC50 = 2.6 µM
Structure (SMILES) = O=C1/C(=C(\O)CCc2ccccc2)C(=O)[C@@]2(C(=O)OC3CCCCC3)CS[C@H](c3ccccc3)N12; effect on = cell growth or viability; technique = resazurin; IC50 = 7.81 µg/mL
Structure (SMILES) = CO[C@@H]1[C@@H](O[C@@H]2O[C@H](C)[C@@H](O[C@H]3C[C@@](C)(O)[C@@H](OC(=O)NC4CCCCC4)[C@H](C)O3)[C@H](N(C)C)[C@H]2O)[C@@H](CC=O)C[C@@H](C)[C@@H](O[C@H]2CC[C@H](N(C)C)[C@@H](C)O2)/C=C/C=C/C[C@@H](C)OC(=O)C[C@H]1O; effect on = cell growth or viability; technique = CCK-8; time = 72 h; IC50 = > 50 µM
Structure (SMILES) = CCCCCCCCCCCCCCOc1c(O)cc(C(=O)O[C@@H]2Cc3c(O)cc(O)cc3O[C@@H]2c2cc(O)c(O)c(O)c2)cc1O; effect on = cell growth or viability; technique = CCK-8; time = 24 h; IC50 = 27.1 µM
Structure (SMILES) = C=C1C(=O)O[C@@H]2/C=C(\C)CC/C=C(/C(=O)OC)C[C@@H](OC(=O)/C(C)=C\C)[C@@H]12; effect on = cell growth or viability; time = 24 h; IC50 = 17.6 µM
Structure (SMILES) = COc1ccc(CNC[C@@](O)(COCc2ccc(OC)cc2)[C@@H]2CC[C@@H](C)C[C@H]2OCc2ccc(OC)cc2)cc1; effect on = cell growth or viability; technique = MTT; time = 72 h; IC50 = 3.5 µM
Structure (SMILES) = COc1ccc(S(=O)(=O)Nc2ccc(CCCC(=O)O[C@H]3c4cc5c(cc4[C@@H](c4cc(OC)c(OC)c(OC)c4)[C@H]4C(=O)OC[C@@H]43)OCO5)cc2)cc1; effect on = cell growth or viability; technique = CCK-8; time = 24 h; IC50 = 40.8 µM
Structure (SMILES) = CN1CCCC1CCO/N=C1/C=C2CCC3C(CC[C@]4(C)/C(=C/c5ccccn5)CCC34)[C@@]2(C)CC1 (stereo partly shown); effect on = cell growth or viability; technique = MTT; time = 72 h; IC50 = > 100 µM
Structure (SMILES) = F[P-](F)(F)(F)(F)F.O=C(CCC(=O)c1ccccc1)NCCN(CC(=O)Nc1ccc(C#CCN(Cc2ccccn2)Cc2ccccn2)cc1)C(=O)CCc1cn(C[c-]2cccc2)nn1.[C-]#[O+].[C-]#[O+].[C-]#[O+].[Fe+2].[Re+].c1cc[cH-]c1; effect on = cell growth or viability; technique = resazurin; time = 48 h; IC50 = 10.2 µM
Structure (SMILES) = CC(=O)O[C@H]1CC[C@]2(C)[C@H]3CC=C4[C@@H]5[C@@H](C)[C@H](C)CC[C@]5(C(=O)O)CC[C@@]4(C)[C@]3(C)CC[C@H]2C1(C)C; effect on = cell growth or viability; technique = MTT; time = 24 h; IC50 = 26.1 µM
Structure (SMILES) = COc1cc2c(=O)c(-c3ccc4c(c3)OCO4)coc2c2c1OC(C)(C)C=C2; effect on = cell growth or viability; technique = MTT; time = 72 h; IC50 = 6.09 µM
Structure (SMILES) = O=c1[nH]c(=O)n([C@@H]2O[C@H](CSSC[C@H]3O[C@@H](n4cc(F)c(=O)[nH]c4=O)[C@H](O)[C@@H](F)[C@@H]3O)[C@@H](O)[C@H](F)[C@H]2O)cc1F; effect on = cell growth or viability; IC50 = 280 µM
Structure (SMILES) = Cc1ccc(CNC(=O)Cc2ccc(-c3ccc(OCCN4CCOCC4)cc3)cn2)cc1; effect on = cell growth or viability; technique = CCK-8; time = 48 h; IC50 = 0.027 µM
Structure (SMILES) = CCCCCCCCOc1c(O)cc(C(=O)O[C@@H]2Cc3c(O)cc(O)cc3O[C@@H]2c2cc(O)c(O)c(O)c2)cc1O; effect on = cell growth or viability; technique = CCK-8; time = 24 h; IC50 = 88.2 µM
Structure (SMILES) = CC(C)(C)c1cc2c(O)c(c1)Cc1cc(C(C)(C)C)cc(c1OCC(=O)NCc1cccnc1)Cc1cc(C(C)(C)C)cc(c1O)Cc1cc(C(C)(C)C)cc(c1OCC(=O)NCc1cccnc1)COC2; effect on = cell growth or viability; technique = MTT; time = 72 h; IC50 = 7.9 µM
Structure (SMILES) = Cn1[c]([Ir-3]234([NH3+])[n]5c6ccc5C(c5c(F)c(F)c(F)c(F)c5F)=C5C=CC(=[N+]52)C(c2c(F)c(F)c(F)c(F)c2F)=c2ccc([n]23)=C(c2c(F)c(F)c(F)c(F)c2F)C2=[N+]4C(=C6c3c(F)c(F)c(F)c(F)c3F)C=C2)[n+](C)c2ccccc21.F[P-](F)(F)(F)(F)F; effect on = cell growth or viability; technique = MTT; time = 72 h; IC50 = 0.37 µM
Structure (SMILES) = CO[C@@H]1[C@@H](O[C@@H]2O[C@H](C)[C@@H](O[C@H]3C[C@@](C)(O)[C@@H](OC(=O)c4ccccc4)[C@H](C)O3)[C@H](N(C)C)[C@H]2O)[C@@H](CC=O)C[C@@H](C)[C@@H](O[C@H]2CC[C@H](N(C)C)[C@@H](C)O2)/C=C/C=C/C[C@@H](C)OC(=O)C[C@H]1O; effect on = cell growth or viability; technique = CCK-8; time = 72 h; IC50 = 7.18 µM
Structure (SMILES) = Cc1cn(CC(=O)N[C@@H](Cc2ccccc2)C(=O)N[C@@H](Cc2ccccc2)C(=O)N[C@@H](Cc2ccc(O)cc2)C(=O)O)c(=O)[nH]c1=O; IC50 = > 500 µM
Structure (SMILES) = O=C(Cc1ccc(-c2ccc(OCCN3CCOCC3)cc2)cn1)N(O)Cc1ccccc1; effect on = cell growth or viability; technique = CCK-8; time = 48 h; IC50 = 1.1 µM
Structure (SMILES) = O=[N+]([O-])c1ccc(/C=N/NC(=S)Nc2ccccc2)s1; effect on = cell growth or viability; IC50 = 3.6 µM
Structure (SMILES) = COc1cc(CN2CCN(c3ccc(C)cc3)CC2)c2cc3[n+](cc2c1O)CCc1cc2c(cc1-3)OCO2; effect on = cell growth or viability; technique = SRB; time = 48 h; IC50 = 4.35 µg/mL
Structure (SMILES) = C[C@@H]1CC[C@@H]([C@@](O)(COCc2ccccc2)Cn2cnc3ccccc32)[C@H](OCc2ccccc2)C1; effect on = cell growth or viability; technique = MTT; time = 72 h; IC50 = 6.9 µM
Structure (SMILES) = O=S(=O)([O-])[O-].[Cu+2].c1ccc(-c2nnc(-c3ccc4c(c3)OCO4)[nH]2)nc1; effect on = cell growth or viability; technique = MTT; time = 24 h; IC50 = 4.98 µM
Structure (SMILES) = COc1cc(C(=O)c2[nH]c(N)nc2-c2cccs2)cc(OC)c1OC; effect on = cell growth or viability; technique = SRB; IC50 = 0.036 µM
Structure (SMILES) = COc1ccc(-c2noc(NC(=O)c3cccc(C(F)(F)F)c3)c2C#N)c(OC)c1; effect on = cell growth or viability; technique = MTT; time = 72 h; IC50 = 75.8 µM
Structure (SMILES) = CO[C@@H]1[C@@H](O[C@@H]2O[C@H](C)[C@@H](O[C@H]3C[C@@](C)(O)[C@@H](OC(=O)CC(C)C)[C@H](C)O3)[C@H](N(C)C)[C@H]2O)[C@@H](CC=O)C[C@@H](C)[C@@H](O[C@H]2CC[C@H](N(C)C)[C@@H](C)O2)/C=C/C=C/C[C@@H](C)OC(=O)C[C@H]1O; effect on = cell growth or viability; technique = CCK-8; time = 72 h; IC50 = 6.23 µM
Structure (SMILES) = CC(=O)OC[C@H]1O[C@@H](NC(=O)CCCc2ccc3c(c2)CCCC3)[C@H](OC(C)=O)[C@@H](OC(C)=O)[C@@H]1OC(C)=O; effect on = cell growth or viability; time = 96 h; IC50 = 118 µM
Structure (SMILES) = CC12CCC3c4ccc(OCCCOc5no[n+]([O-])c5S(=O)(=O)c5ccccc5)c(Br)c4CCC3C1CCC2O (stereo not shown); effect on = cell proliferation; technique = MTT; time = 48 h; IC50 = 3.59 µM
Structure (SMILES) = O=C(/C=C/c1ccc(-c2ccccc2)cc1)NC(=O)N[C@@H]1O[C@H](CO)[C@@H](O)[C@H](O)[C@H]1O; effect on = cell growth or viability; time = 96 h; IC50 = > 250 µM
Structure (SMILES) = CC(=O)NCCCN(C)CCCNc1cccc2c1C(=O)c1cccc(NCCCN(C)CCCNC(C)=O)c1C2=O; effect on = cell growth or viability; technique = CCK-8; time = 48 h; IC50 = 1.4 µM
Structure (SMILES) = OC(c1ccccc1)c1cnnn1Cc1ccc(-c2ccc(OCCN3CCOCC3)cc2)cn1 (stereo not shown); effect on = cell growth or viability; technique = CCK-8; time = 48 h; IC50 = > 4 µM
Structure (SMILES) = CC(=O)OC[C@H]1O[C@@H](NC(=O)[C@@H](C)Cc2ccc(C(C)C)cc2)[C@H](OC(C)=O)[C@@H](OC(C)=O)[C@@H]1OC(C)=O; effect on = cell growth or viability; time = 96 h; IC50 = 64 µM
Structure (SMILES) = O=c1ccn([C@@H]2O[C@H](CSSC[C@H]3O[C@@H](n4ccc(=O)[nH]c4=O)[C@H](O)[C@@H](F)[C@@H]3O)[C@@H](O)[C@H](F)[C@H]2O)c(=O)[nH]1; effect on = cell growth or viability; IC50 = 320 µM
Structure (SMILES) = Cc1c(C(=O)NNC(=S)Nc2ccc(Cl)cc2)nnn1Cc1nc2ccccc2[nH]1; time = 48 h; IC50 = 3.87 ± 0.2 µM
Structure (SMILES) = O=[N+]([O-])[O-].[NH3+][Pt-2]1([NH3+])[O]C(c2ccccc2)=CC(c2ccccc2)=[O+]1 (stereo not shown); effect on = cell growth or viability; technique = MTT; IC50 = 6.7 µM
Structure (SMILES) = Cc1cc(N2CCN(C(=O)CN3CCCCC3)CC2)n2ncnc2n1; effect on = cell growth or viability; technique = MTT; IC50 = 59.1 µM
Structure (SMILES) = O=C(Cc1ccc(-c2ccc(OCCN3CCOCC3)cc2)cn1)NCc1cccnc1; effect on = cell growth or viability; technique = CCK-8; time = 48 h; IC50 = > 4 µM
Structure (SMILES) = Cc1cc(C#N)cc(C)c1Oc1cc(Nc2ccc(C#N)cn2)nc2cnccc12; time = 48 h; IC50 = > 127 µM
Structure (SMILES) = CC(C)(C(=O)O)C1(O)c2ccccc2-c2ccccc21; effect on = cell growth or viability; IC50 = 99.1 µM
Structure (SMILES) = CO[C@@H]1[C@@H](O[C@@H]2O[C@H](C)[C@@H](O[C@H]3C[C@@](C)(O)[C@@H](OC(=O)c4ccc(C(C)(C)C)cc4)[C@H](C)O3)[C@H](N(C)C)[C@H]2O)[C@@H](CC=O)C[C@@H](C)[C@@H](O[C@H]2CC[C@H](N(C)C)[C@@H](C)O2)/C=C/C=C/C[C@@H](C)OC(=O)C[C@H]1O; effect on = cell growth or viability; technique = CCK-8; time = 72 h; IC50 = 1.3 µM
Structure (SMILES) = Cc1cn(CC(=O)N[C@@H](Cc2ccccc2)C(=O)N[C@@H](Cc2ccccc2)C(=O)O)c(=O)[nH]c1=O; IC50 = > 500 µM
Structure (SMILES) = [Cl][Pd-]1([Cl])[S]C(Nc2ccccc2)=N[N+]1=Cc1ccc(-c2ccccc2)s1; effect on = cell growth or viability; IC50 = 254 µM
Structure (SMILES) = COc1cc(OC)c(/C=C/C(=O)c2c(OC)cc(OC)cc2OC)c(OC)c1; effect on = cell growth or viability; technique = MTT; time = 48 h; IC50 = 72.2 µM
Structure (SMILES) = CC[P+](c1cc(C)cc(C)c1)(c1cc(C)cc(C)c1)c1cc(C)cc(C)c1; effect on = cell growth or viability; technique = resazurin; time = 72 h; IC50 = 0.8 µM
Structure (SMILES) = N#Cc1c(-c2cccs2)cc(-c2cccc3ccccc23)n2c(Cc3ccccc3)nnc12; effect on = cell growth or viability; technique = MTT; time = 72 h; IC50 = 1.14 µM
Structure (SMILES) = O=C(c1ccc[nH]1)c1ccccc1O; effect on = cell growth or viability; technique = resazurin; time = 24 h; IC50 = > 64 µg/mL
